Measured values collected from several papers.
Each line is one published result; not all experiments were run side by side. ± gives the spread as reported.

CCCCCCCC(=O)O
maximal peptide depletion (cysteine peptide Ac-RFAACAA-COOH; DPRA RapidFire-MS/MS; 24 h, pH 7.5, together with: 5.0 µM cysteine peptide): -25.4%

Cc1c(C)c2c(c(C)c1OCc1ccccc1)CCC(C)(C(=O)NN=C1C(=O)Nc3ccc(Br)cc31)O2 (stereo not drawn)
minimal effective dose (seizure protection; male CF-1 mice; intraperitoneal, 4 h, together with: pentylenetetrazole 60 mg/kg subcutaneous): 100 mg/kg

Cc1cc(-c2ccccc2)c2c(n1)C1(CCCCC1)NC2=O
inhibition (human erythrocytes; hypotonicity-induced hemolysis; 1000 µg/mL, 1 h): 90.1%

CC(C)(N)C(=O)O
Km (Ehrlich ascites cells, mouse; system A uptake; extrapolated to infinite Na+): 1100 µM

CCCCCCCCCCCCOC(=O)c1cc(O)c(O)c(O)c1
peptide depletion (cysteine peptide Ac-RFAACAA-COOH; DPRA RapidFire-MS/MS; 24 h, pH 7.5, together with: 5.0 µM cysteine peptide): inactive

CNCCCN1c2ccccc2CCc2ccccc21
[18F]-dopamine retention (mouse pheochromocytoma MPC cells; 1 µM, 30 min preincubation, together with: 0.024 MBq/mL [18F]-dopamine, 120 min retention phase; reference: control): 40.1%

Cc1c(C)c2c(c(C)c1OCc1ccccc1)CCC(C)(C(=O)NN=C1C(=O)N(C)c3ccc(Cl)cc31)O2 (stereo not drawn)
minimal effective dose (seizure protection; male CF-1 mice; intraperitoneal, 0.5 h, together with: pentylenetetrazole 60 mg/kg subcutaneous): 100 mg/kg

SIYNFEKL
TNF-alpha+ cells (OT-I CD8+ T cells; peptide; concentration not given, primed 5 d, OVA257 100 ng/mL restimulation, together with: 20 ng/mL TGF-beta1 from day 2): 49.7%

COc1ccc2c(c1)c(CC(=O)O)c(C)n2C(=O)c1ccc(Cl)cc1
inhibition (human erythrocytes; hypotonicity-induced hemolysis; 100 µg/mL, 1 h): 88%

CN(C)CCCN
IC50 (cysteine peptide Ac-RFAACAA-COOH; peptide depletion, DPRA RapidFire-MS/MS; 24 h, pH 7.5, room temperature, together with: 5.0 µM cysteine peptide): inactive

Cc1c(C)c2c(c(C)c1OCc1ccccc1)CCC(C)(C(=O)NN=C1C(=O)Nc3ccccc31)O2 (stereo not drawn)
minimal effective dose (seizure protection; male CF-1 mice; intraperitoneal, 0.5 h, together with: maximal electroshock): > 300 mg/kg

COc1c(Cl)c(C)c(C=O)c(O)c1C/C=C(C)/C=C/[C@@]1(C)[C@H](C)CCC(=O)[C@@H]1C
IC50 (Wickerhamomyces anomalus; O2 uptake, inhibitor; mitochondria; together with: malate and pyruvate 15 mM): 5.9 µM

Cc1c(C)c2c(c(C)c1O)CCC(C)(C(=O)NN=C1C(=O)Nc3cc(Cl)ccc31)O2 (stereo not drawn)
minimal effective dose (seizure protection; male CF-1 mice; intraperitoneal, 0.5 h, together with: maximal electroshock): 100 mg/kg

O=CCc1ccccc1
peptide depletion (cysteine peptide Ac-RFAACAA-COOH; DPRA RapidFire-MS/MS; 24 h, pH 7.5, together with: 5.0 µM cysteine peptide): inactive

IINFEKL
K1/2 of L-AMC (ERAP1 human L734R; activator; peptide; 100 µM, pH 8.0, 27 °C, together with: L-AMC substrate): 0.33 ± 0.09 mM

CC(C=CC1(C)C(C)CCC(=O)C1C)=CCc1c(O)c(C=O)c(C)c(Cl)c1OC(=O)c1cccnc1 (stereo not drawn)
IC50 (Wickerhamomyces anomalus; O2 uptake, inhibitor; mitochondria; together with: succinate 15 mM): 0.74 µM

CCCCCC(C=O)=Cc1ccccc1
IC50 (cysteine peptide Ac-RFAACAA-COOH; peptide depletion, DPRA RapidFire-MS/MS; 24 h, pH 7.5, room temperature, together with: 5.0 µM cysteine peptide): 292 µM

IINFEKE
Hill coefficient (ERAP1 human wild type; activator; peptide; 100 µM, pH 8.0, 27 °C, together with: L-AMC substrate): 2.4

CCOC(=O)/C=C\C(=O)OCC
IC50 (cysteine peptide Ac-RFAACAA-COOH; peptide depletion, DPRA RapidFire-MS/MS; 24 h, pH 7.5, room temperature, together with: 5.0 µM cysteine peptide): 300 µM

SIIVFEKL
IL-2+ cells (OT-I CD8+ T cells; peptide; concentration not given, primed 5 d, OVA257 100 ng/mL restimulation, together with: 20 ng/mL TGF-beta1 from day 2): 50%

COc1c(C)c(C)c2c(c1C)CCC(C)(C(=O)NN=C1C(=O)Nc3cc(Cl)ccc31)O2 (stereo not drawn)
minimal effective dose (seizure protection; male CF-1 mice; intraperitoneal, 0.5 h, together with: pentylenetetrazole 60 mg/kg subcutaneous): 100 mg/kg

O=C1OC(=O)c2ccccc21
IC50 (cysteine peptide Ac-RFAACAA-COOH; peptide depletion, DPRA RapidFire-MS/MS; 24 h, pH 7.5, room temperature, together with: 5.0 µM cysteine peptide): inactive

COc1c(C)c(C)c2c(c1C)CCC(C)(C(=O)NN=C1C(=O)Nc3ccccc31)O2 (stereo not drawn)
minimal effective dose (seizure protection; male CF-1 mice; intraperitoneal, 4 h, together with: maximal electroshock): 300 mg/kg

NC1=NC(=S)NC12CCCCC2
inhibition (human erythrocytes; hypotonicity-induced hemolysis; 800 µg/mL, 1 h): 96%

COc1cc(-c2ccc(-c3ccc(C(=N)N)nc3)s2)cc(OC)c1OC
mRNA level (HepG2; real-time PCR, item: topoisomerase II; 0.1 µM, 8 h, unit not given; reference: untreated): 0.27 ± 0.02

COc1c(C)c(C)c2c(c1C)CCC(C)(C(=O)NN=C1C(=O)Nc3ccc(F)cc31)O2 (stereo not drawn)
minimal effective dose (seizure protection; male CF-1 mice; intraperitoneal, 0.5 h, together with: pentylenetetrazole 60 mg/kg subcutaneous): 100 mg/kg

CCCCCCCCCCCCCCCC(=O)Cl
peptide depletion (cysteine peptide Ac-RFAACAA-COOH; DPRA RapidFire-MS/MS; 24 h, pH 7.5, together with: 5.0 µM cysteine peptide): inactive

For quick reference, copied from above:
COc1cc(-c2ccc(-c3ccc(C(=N)N)nc3)s2)cc(OC)c1OC
mRNA level (HepG2; real-time PCR, item: topoisomerase II; 0.1 µM, 8 h, unit not given; reference: untreated): 0.27 ± 0.02

COc1c(C)c(C)c2c(c1C)CCC(C)(C(=O)NN=C1C(=O)Nc3ccc(F)cc31)O2 (stereo not drawn)
minimal effective dose (seizure protection; male CF-1 mice; intraperitoneal, 0.5 h, together with: pentylenetetrazole 60 mg/kg subcutaneous): 100 mg/kg
